Measurements from different studies.
Parts stem from different laboratories: compare values within a part only. Positions count from the first letter of the parent shown.

Sample 1 — method: protein-binding microarray; molecule type: double-stranded DNA, one strand shown; sample: in vitro; concentration: 250 nM; notes: 60-bp whole probe; added: salmon DNA 0.4 mg/ml; reference: random background probes; reading: higher = stronger binding; measurement: log fluorescence; constant ends, left off below: GCCTAGCAC … GTCTTGATTCGCTTGACGCTGCTG
Target: Interferon regulatory factor 7, full length, phosphomimetic (IRF7, Homo sapiens, UniProt Q92985, residues 1-503, S101K/S471D/S472D/S475D/S476D/S477D/S483D/S484D/S487D)
UniProt Q92985, sequence (whole entry, unmodified, looked up): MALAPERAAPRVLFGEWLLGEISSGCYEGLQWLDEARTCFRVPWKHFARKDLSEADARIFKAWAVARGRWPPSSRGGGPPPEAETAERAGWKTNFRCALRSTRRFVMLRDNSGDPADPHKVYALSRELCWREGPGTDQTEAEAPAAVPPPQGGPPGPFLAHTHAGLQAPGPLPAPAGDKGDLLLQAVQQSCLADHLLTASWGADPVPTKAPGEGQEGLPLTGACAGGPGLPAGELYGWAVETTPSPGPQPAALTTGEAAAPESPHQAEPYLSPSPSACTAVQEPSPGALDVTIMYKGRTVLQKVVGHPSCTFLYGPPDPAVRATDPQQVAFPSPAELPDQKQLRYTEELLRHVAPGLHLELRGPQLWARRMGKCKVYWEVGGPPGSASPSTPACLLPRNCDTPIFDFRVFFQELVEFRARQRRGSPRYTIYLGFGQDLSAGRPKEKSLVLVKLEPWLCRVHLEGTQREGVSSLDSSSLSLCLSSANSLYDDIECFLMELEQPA
GCCGGTCTCGGACTGGGGACGTGCTAG: 0.209 z-score
GACGATTTCAGGCTGGAGACGTGCTAG: -0.211 z-score
TCAGCTCTGATGTTGGGACTGTGCTAG: -0.485 z-score
GACGGTTCCGGTTTCTGGACGTGCTAG: 5.99 z-score
TTAGATTTCGGGACTGGGTTAGTGCTA: 0.399 z-score
GACGGTTTCCATTCCCTGACGTGCTAG: 7.52 z-score
ATTTTTCTAATTTACTTTGGGTGCTAG: 2.35 z-score
GACGGTTTCCTTTCACTGACGTGCTAG: 7.04 z-score
TTAGATATCAGACTCGATTAGTGCTAG: 1.32 z-score
TTAGGAATGCTTCTCCTTTAGTGCTAG: 0.254 z-score
GACGGTTTCAGACTGGGGACGTGCTAG: 0.614 z-score
TTAGGACTGGGGTATCGGTCAGTGCTA: -0.554 z-score
TCAACTCTCTCCATGTGACTGTGCTAG: -0.0487 z-score
TTACGTCTCCTTCTCCTTTAGTGCTAG: 0.373 z-score
TTAGGTTGCCTTATCCTTTAGTGCTAG: 0.0204 z-score
TTTGATCTCAGTCTCGATTAGTGCTAG: 1.31 z-score
TCAGCTTTCTTTATGTAACTGTGCTAG: 0.361 z-score
GTAGGTATCGACACTGGGTTAGTGCTA: -0.609 z-score
TCATTTCTATATTTGCTACTGTGCTAG: 1.93 z-score
TCATTTTCCTATGTCATACTGTGCTAG: 2.68 z-score
GACGAAATGAGTATCGAGACGTGCTAG: 0.396 z-score
TTAGGACAGGACTTTCGGTTAGTGCTA: 0.892 z-score
GACGGTATCGAATATCGGGACGTGCTA: -0.0889 z-score
TCACCCCTCTCATTCCAACTGTGCTAG: 0.191 z-score

Sample 2 — target: CCNE2, cyclin fold, Cln2 fusion (human); method: yeast growth competition, sequencing; sample: yeast; notes: weak parent motif; reference: not given; reading: higher = stronger binding; measurement: normalised enrichment score
Parent: SLBP docking peptide (human); ARYKRKLLINDFG; partner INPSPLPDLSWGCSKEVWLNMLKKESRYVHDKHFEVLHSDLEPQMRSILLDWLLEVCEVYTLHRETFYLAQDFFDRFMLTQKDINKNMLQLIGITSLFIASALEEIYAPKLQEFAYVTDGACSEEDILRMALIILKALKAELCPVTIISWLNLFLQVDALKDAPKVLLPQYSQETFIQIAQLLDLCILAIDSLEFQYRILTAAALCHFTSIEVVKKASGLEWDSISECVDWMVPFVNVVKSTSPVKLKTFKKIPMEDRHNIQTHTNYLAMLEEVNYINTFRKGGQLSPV
ARYKRKLLYNDFG [I9Y]: 1.72
ARYKRKLLINDMG [F12M]: 0.913
ARYKRKLLINDFT [G13T]: 0.365
ARYKRKLLIYDFG [N10Y]: 0.617
ARYKRKLLINDDG [F12D]: 0.838
ARYKRKLLITDFG [N10T]: 0.812
ARYKRKLLINCFG [D11C]: 0.702
ARYKRKLLINDGG [F12G]: 0.504
AWYKRKLLINDFG [R2W]: 1.01
ARYKRKLLINDFY [G13Y]: 1.18
MRYKRKLLINDFG [A1M]: 0.975
ARYKRKLLCNDFG [I9C]: 0.727
ARYKRKELINDFG [L7E]: 0.204
ARYKRKLLIWDFG [N10W]: 1.41
ARYKRKLLINDEG [F12E]: 0.61
ARYKRKLLILDFG [N10L]: 1.8
ARYKRKALINDFG [L7A]: -0.151
ARYKRKILINDFG [L7I]: -0.248
ARYKRKLLINDFA [G13A]: -0.0704

Sample 3 — method: DHFR PCA, dose-response; sample: yeast; added: (+)-ABA, dose series; reading: lower = more sensitive; measurement: ABA EC50
Target: ABI1, truncated, D143A, DHFR fusion (Arabidopsis thaliana, UniProt P49597)
Notes: Hill fit, not affinity, not high confidence
Parent: PYL1, truncated, DHFR fusion (Arabidopsis thaliana, UniProt Q8VZS8); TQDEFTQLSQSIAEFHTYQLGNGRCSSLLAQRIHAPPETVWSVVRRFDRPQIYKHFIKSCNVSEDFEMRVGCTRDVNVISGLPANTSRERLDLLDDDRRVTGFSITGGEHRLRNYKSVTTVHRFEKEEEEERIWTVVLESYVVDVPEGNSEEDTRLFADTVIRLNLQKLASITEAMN
Y115A: 15.5 µM
S117V: 766 µM
L169K: 4.04 µM
D153P: 1950 µM
L166S: 885 µM
T101P: 2480 µM
Q7H: 2.78 µM
P50Y: 406 µM
V118E: 356 µM
P83R: 0.374 µM
H110T: 358 µM
L112D: 0.00815 µM
N165V: 4.45 µM
L91A: 705 µM
S140Q: 745 µM
N149H: 216 µM
R98P: 649 µM

Sample 4 — method: protein binding microarray; molecule type: double-stranded DNA, one strand shown; sample: in vitro; concentration: not given; reference: not given; reading: higher = stronger binding; measurement: E-score
Target: Histone acetyltransferase KAT6A, both winged helices, GST fusion (KAT6A, Homo sapiens, UniProt Q92794, residues 1-181)
Notes: 8-mer, flanks averaged, mean of 2 arrays, mostly near background
Target sequence (chain): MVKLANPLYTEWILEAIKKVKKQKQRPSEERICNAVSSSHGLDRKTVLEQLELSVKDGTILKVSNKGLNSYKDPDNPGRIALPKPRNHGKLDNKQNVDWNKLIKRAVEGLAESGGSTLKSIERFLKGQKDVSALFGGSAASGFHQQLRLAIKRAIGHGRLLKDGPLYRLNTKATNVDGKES
AACTCACA: -0.166
CAGAAAGG: -0.0616
AACAAGTT: -0.144
TATGCTCA: 0.0216
CACGCAGC: 0.162
AATGTATA: -0.0639
ATCAATAA: -0.0888
ACTACTGC: 0.091
CGCCCCGC: 0.267
ATCAGCCA: -0.177
ATTTCCTC: -0.0971
GACCTCGC: 0.144
GATGAACC: -0.0131
AAAAAGCT: 0.0365
ATAGGAAT: -0.233
CTAGAGAG: -0.242
GTGTCAAC: -0.00326
ACCGTCCG: 0.234
TGTCAGAA: -0.136
CTGTACCC: 0.0504
AGTTAGCG: 0.0901
TAAACTCA: -0.0802
AAGTCTAG: -0.0189
AAACTTGA: -0.0462
AAAGTGCT: -0.103

Sample 5 — method: universal PBM; molecule type: double-stranded DNA, one strand shown; sample: in vitro; concentration: 600 nM; reading: higher = stronger binding; measurement: E-score
Target: Sal-like protein 4, full length isoform A (SALL4, Homo sapiens, UniProt Q9UJQ4, residues 1-1053)
UniProt Q9UJQ4, sequence (whole entry, looked up): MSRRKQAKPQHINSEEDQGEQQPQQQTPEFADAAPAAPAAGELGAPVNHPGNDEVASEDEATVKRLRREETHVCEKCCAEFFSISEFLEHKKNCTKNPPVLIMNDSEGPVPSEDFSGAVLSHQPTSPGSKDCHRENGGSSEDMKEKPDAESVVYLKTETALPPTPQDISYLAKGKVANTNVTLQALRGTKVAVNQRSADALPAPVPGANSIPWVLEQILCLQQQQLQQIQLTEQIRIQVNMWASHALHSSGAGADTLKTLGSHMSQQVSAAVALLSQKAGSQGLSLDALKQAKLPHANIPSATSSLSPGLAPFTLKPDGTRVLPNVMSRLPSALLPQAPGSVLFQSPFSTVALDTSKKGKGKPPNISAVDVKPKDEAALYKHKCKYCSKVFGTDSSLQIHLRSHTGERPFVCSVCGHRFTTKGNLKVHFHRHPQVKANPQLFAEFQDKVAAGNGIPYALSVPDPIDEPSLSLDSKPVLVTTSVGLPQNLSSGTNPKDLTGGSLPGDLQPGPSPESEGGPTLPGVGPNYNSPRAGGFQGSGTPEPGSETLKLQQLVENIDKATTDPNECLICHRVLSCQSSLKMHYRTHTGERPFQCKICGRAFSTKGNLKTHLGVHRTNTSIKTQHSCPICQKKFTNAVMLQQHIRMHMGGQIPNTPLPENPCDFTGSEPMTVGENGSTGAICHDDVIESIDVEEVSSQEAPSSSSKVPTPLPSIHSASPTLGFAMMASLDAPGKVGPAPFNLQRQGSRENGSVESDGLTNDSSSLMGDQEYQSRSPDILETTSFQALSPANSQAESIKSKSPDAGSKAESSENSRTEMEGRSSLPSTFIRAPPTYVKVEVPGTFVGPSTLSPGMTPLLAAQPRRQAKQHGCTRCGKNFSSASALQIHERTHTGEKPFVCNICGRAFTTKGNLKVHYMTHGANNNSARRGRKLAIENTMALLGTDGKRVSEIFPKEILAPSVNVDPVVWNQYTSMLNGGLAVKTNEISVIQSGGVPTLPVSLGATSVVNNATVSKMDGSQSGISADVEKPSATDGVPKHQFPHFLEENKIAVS
Notes: 8-mer, flanks averaged, mean of replicates
AAGGCAAC: 0.012
ATATGGGA: 0.213
GTTGTGTA: 0.157
GTTCAGCA: -0.133
ACATAGGA: 0.0608
CGTCAGCA: -0.108
AACCCATG: -0.0361
GATGTAGC: -0.132
AGGGTAAA: 0.137
AAACTTAG: 0.101
TCGCACAA: -0.00146
AAATGTCA: 0.134
CCCCTAGA: -0.0371
ATAAGTAC: 0.247
CCTGTATA: 0.151
ACACGGGA: -0.193
GCGCGGCC: -0.367
CAGGCTCG: -0.239
GCAATGCC: -0.105
TAGGAAGA: 0.0261

Sample 6 — method: RNA Bind-n-Seq; molecule type: RNA; sample: in vitro; concentration: not given; reference: input RNA pool; reading: higher = stronger binding; measurement: bound/input enrichment
Target: RING finger protein unkempt homolog, zinc fingers 1-6, GST-SBP tag (UNK, Homo sapiens, UniProt Q9C0B0, residues 30-357)
Notes: RNA with constant flanks, human and mouse sites, ends assumed
Residues (chain): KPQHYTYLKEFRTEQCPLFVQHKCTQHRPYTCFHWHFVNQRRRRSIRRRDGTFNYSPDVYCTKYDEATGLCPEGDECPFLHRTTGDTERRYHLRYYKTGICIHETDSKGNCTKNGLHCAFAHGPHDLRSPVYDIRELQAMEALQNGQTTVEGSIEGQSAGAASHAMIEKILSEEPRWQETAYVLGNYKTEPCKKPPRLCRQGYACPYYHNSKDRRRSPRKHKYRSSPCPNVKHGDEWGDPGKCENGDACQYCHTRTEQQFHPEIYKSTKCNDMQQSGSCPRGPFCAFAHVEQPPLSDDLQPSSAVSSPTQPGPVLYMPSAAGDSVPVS
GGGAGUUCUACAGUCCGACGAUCGAAGCUCAGCACUUAACAACUGACACCCCAAAAGACGUAGAAAAGGUUUACAAAAUAAUCUAGUUUACGAAGAAAUCUUGUGCUAGAAUACUUUUUAAAGUAUUUUUGAAUACCAUUAAACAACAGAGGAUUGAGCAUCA: 0.276 ratio
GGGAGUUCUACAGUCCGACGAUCCUGCGAAAAUUCAUUCCGCUGUAACGUUUUUUCACAAUAUUUAAAGCAGAAGCACGUCAGUAAGGUUUCCUUCUGCAUAAGGUUUUUGUAGUGUGAUGUCUUAAUCAUAGUCUACCAUCACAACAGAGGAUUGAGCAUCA: 0.344 ratio
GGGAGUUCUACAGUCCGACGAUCGAGGAAAUGAGUCUCAACCAGAAAGCCAGGAAGACCCUCGGGAAGUACUUAAAAAAACAUUGGAAUUCUGCUUAUCUAGGGAGAAUCUUGCUAGCGACAUGUACCUUAUAUCCCAGAUGGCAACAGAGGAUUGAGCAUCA: 0.321 ratio
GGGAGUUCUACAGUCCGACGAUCAUCAUGCAAACAGUGAAGGGAUUUUUUUAUGUUUCAUUACUUCUUGACAUUCUGAAAGAGAUAACUGGAAGUUCCUUGAUUCAGAAAACAGAUUCAGAUGAAGAAGUUGCAAUGCUGUUGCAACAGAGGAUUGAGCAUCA: 0.144 ratio
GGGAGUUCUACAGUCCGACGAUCGGAGUCUUCAAUAAUAAACACAGUGGCCUGUGGCACAGUGGACUGAUCGACAAAAACCUCAUUGAUUACUUUAUCCCCUUCCUGCCUUUGGAGUACAGACAUGUGAAAAUGUGUGUGAGGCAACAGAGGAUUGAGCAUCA: 0.11 ratio
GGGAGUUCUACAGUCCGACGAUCGUACUGCAACAGCAGGGCAAGCUGCAGGAAGCACUGAUGCACUAUAAAGAAGCCAUACGAAUUAGUCCUACAUUUGCUGAUGCUUAUUCCAAUAUGGGAAACACUCUAAAGGAGAUGCAGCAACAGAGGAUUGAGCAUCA: 0.804 ratio
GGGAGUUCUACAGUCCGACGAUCGGAAUCAACUUCAUGGUCUACCAACCAACCCCGUGGGAGGCAGCCUCAGACUCGAUGAAACGACUACAAAGUGCCAUGACAGAAGGUGGUGUGGUUCUACGGGAACCUCAGAGAAUCUAUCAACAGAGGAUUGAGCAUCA: 0.0685 ratio
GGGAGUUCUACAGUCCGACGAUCGGGGUCCUCUAUCAUAUUUCAAAUCCUAAUGGAGACAAAACAAAAGUGAUGGUCAGUAUUUCUUUGAAAUUCUACAAGGAACUUCAGGCACAUGGUGCUGAUGAGUUAUUAAAGAGGGUGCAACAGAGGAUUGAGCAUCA: 0.416 ratio
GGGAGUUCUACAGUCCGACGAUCGUGUUUCAGAUUUUAAAGUGAUCACGAUUUGGUAGAUUACAGAUAUUUUUUUGUUGUUGUUUUAGUUUUUUCUUUUUCUUUUUUUAAGUAAACAGUCAAGUCAGGUCAAGCAAGACGUUACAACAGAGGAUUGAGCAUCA: 8.17 ratio
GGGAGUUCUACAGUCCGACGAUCCUGCAGUUUCAGGCCUGUCGAGGGGCACAGACAGCUGCUGCUGCAGCUCCCAGAAUCAAAAAAUUUGCCAUUUACCGAUGGGACCCAGACAAGACUGGAGAUAAACCUCGAAUGCAGACGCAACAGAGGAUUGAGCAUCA: 0.192 ratio
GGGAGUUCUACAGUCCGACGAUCUCUUGACUUUAUUUCGUCAAUGUUGAGAAAAACUUUUUAUAUCUCAAAAUAUCGUUAGAAAAGGAAGUCCCAGCGCUCGGAGGCUUAGCUGACAAAGAAGGGGGUUGCGUGGCUGCGAGUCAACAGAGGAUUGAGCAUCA: 0.458 ratio

For quick reference, copied from above (sample 1):
TCAGCTCTGATGTTGGGACTGTGCTAG: -0.485 z-score
GACGGTTCCGGTTTCTGGACGTGCTAG: 5.99 z-score
TTAGATTTCGGGACTGGGTTAGTGCTA: 0.399 z-score
GACGGTTTCCATTCCCTGACGTGCTAG: 7.52 z-score
ATTTTTCTAATTTACTTTGGGTGCTAG: 2.35 z-score
GACGGTTTCCTTTCACTGACGTGCTAG: 7.04 z-score
TTAGATATCAGACTCGATTAGTGCTAG: 1.32 z-score
TTAGGAATGCTTCTCCTTTAGTGCTAG: 0.254 z-score
GACGGTTTCAGACTGGGGACGTGCTAG: 0.614 z-score
TTAGGACTGGGGTATCGGTCAGTGCTA: -0.554 z-score
TCAACTCTCTCCATGTGACTGTGCTAG: -0.0487 z-score
TTACGTCTCCTTCTCCTTTAGTGCTAG: 0.373 z-score
